Assay results pooled from the literature.
Protocols differ between the studies behind these lines.
Cell line: MOLT-4

NC(=O)c1ccc(-c2ccccc2Cl)c2c3c([nH]c12)CCC(N)C3 (stereo not drawn)  IC50 (cell growth or viability; 96 h): 21.5 nM
N#Cc1c(N)nc2c(c1-c1ccccc1)Cc1cc(O)ccc1-2  IC50 (cell growth or viability, ATP luminescence): 10700 nM
CC[C@H](CO)Nc1nc(NCc2ccc(-c3ccccn3)cc2)c2ncn(C(C)C)c2n1  log2 fold change (TMT mass spectrometry proteomics, measured: CENPE protein; 1 µM, 1 h; relative to: DMSO): -0.546
N#Cc1c(N)nc2c(c1-c1ccc[nH]1)Cc1cc(O)ccc1-2  IC50 (cell growth or viability, ATP luminescence): 3740 nM
CCCC(CCC)C(=O)OCc1cn(-c2cc3ccccc3oc2=O)nn1  growth percentage (NCI60 single-dose screen; 10 µM): 95%
CCOc1cncc(-c2ccc(NC(=O)C3(c4ccnc(NS(=O)(=O)C5CC5)n4)CCOCC3)nc2)n1  IC50 (cell growth or viability, ATP luminescence; 72 h): 16 nM
N#Cc1c(N)nc2c(c1-c1ccc(F)cc1)Cc1cc(O)ccc1-2  IC50 (cell growth or viability, ATP luminescence): 5900 nM
CN1CCC(N[C@@H]2CCc3[nH]c4c(C(N)=O)ccc(-c5ccccc5Cl)c4c3C2)CC1  IC50 (cell growth or viability): 13.9 nM
N#Cc1c(N)nc2c(c1-c1ccc(CO)o1)CCc1cc(O)ccc1-2  IC50 (cell growth or viability, ATP luminescence): 3200 nM
Cc1sc2c(c1C)C(c1ccc(Cl)cc1)=N[C@@H](CC(=O)NCCCCCCCCC(=O)N1CCN(C(=O)c3cc(Cc4n[nH]c(=O)c5ccccc45)ccc3F)CC1)c1nnc(C)n1-2  IC50 (cell growth or viability, ATP luminescence; 72 h): 138 nM
COc1cc(C(=O)N/N=C/c2cccc3ccccc23)cc(OC)c1OC  IC50 (cell growth or viability, MTT; 48 h): 54 nM
CNS(=O)(=O)Nc1nccc(Cc2c(C)c3ccc(Oc4ncccc4F)cc3oc2=O)c1F  IC50 (cell viability; 7 days): > 1000 nM

Repeated from above:
COc1cc(C(=O)N/N=C/c2cccc3ccccc23)cc(OC)c1OC  IC50 (cell growth or viability, MTT; 48 h): 54 nM
CNS(=O)(=O)Nc1nccc(Cc2c(C)c3ccc(Oc4ncccc4F)cc3oc2=O)c1F  IC50 (cell viability; 7 days): > 1000 nM
